Experimental data of several laboratories.
Lines come from different studies, so protocols differ.
CASP4: Caspase-4 (CASP4, Homo sapiens, UniProt P49662)
Chain of UniProt P49662 (whole entry, looked up): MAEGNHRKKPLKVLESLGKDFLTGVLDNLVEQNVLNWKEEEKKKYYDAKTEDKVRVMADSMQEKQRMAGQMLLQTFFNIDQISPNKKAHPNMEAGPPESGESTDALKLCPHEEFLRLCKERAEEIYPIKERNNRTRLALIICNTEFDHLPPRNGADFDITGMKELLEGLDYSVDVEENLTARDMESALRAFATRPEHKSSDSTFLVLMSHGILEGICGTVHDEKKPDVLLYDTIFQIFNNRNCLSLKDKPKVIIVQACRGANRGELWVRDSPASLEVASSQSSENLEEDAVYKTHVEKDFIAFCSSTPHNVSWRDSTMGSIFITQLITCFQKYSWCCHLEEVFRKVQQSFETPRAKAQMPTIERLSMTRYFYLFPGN
HCRTR1: Orexin/Hypocretin receptor type 1 (HCRTR1, Homo sapiens, UniProt O43613)
Chain of UniProt O43613 (whole entry, looked up): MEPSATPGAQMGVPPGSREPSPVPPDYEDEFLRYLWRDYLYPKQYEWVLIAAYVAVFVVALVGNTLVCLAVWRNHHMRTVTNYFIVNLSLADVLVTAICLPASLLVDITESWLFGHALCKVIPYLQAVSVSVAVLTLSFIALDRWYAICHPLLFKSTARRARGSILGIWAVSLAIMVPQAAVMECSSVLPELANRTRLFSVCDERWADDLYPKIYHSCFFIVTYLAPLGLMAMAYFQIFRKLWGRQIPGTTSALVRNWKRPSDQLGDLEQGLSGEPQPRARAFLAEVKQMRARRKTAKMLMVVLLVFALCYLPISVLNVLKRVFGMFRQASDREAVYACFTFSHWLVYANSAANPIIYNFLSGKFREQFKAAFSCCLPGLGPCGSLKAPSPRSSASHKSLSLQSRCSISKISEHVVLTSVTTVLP
AR: Androgen receptor (AR, Homo sapiens, UniProt P10275)
Chain of UniProt P10275 (whole entry, looked up): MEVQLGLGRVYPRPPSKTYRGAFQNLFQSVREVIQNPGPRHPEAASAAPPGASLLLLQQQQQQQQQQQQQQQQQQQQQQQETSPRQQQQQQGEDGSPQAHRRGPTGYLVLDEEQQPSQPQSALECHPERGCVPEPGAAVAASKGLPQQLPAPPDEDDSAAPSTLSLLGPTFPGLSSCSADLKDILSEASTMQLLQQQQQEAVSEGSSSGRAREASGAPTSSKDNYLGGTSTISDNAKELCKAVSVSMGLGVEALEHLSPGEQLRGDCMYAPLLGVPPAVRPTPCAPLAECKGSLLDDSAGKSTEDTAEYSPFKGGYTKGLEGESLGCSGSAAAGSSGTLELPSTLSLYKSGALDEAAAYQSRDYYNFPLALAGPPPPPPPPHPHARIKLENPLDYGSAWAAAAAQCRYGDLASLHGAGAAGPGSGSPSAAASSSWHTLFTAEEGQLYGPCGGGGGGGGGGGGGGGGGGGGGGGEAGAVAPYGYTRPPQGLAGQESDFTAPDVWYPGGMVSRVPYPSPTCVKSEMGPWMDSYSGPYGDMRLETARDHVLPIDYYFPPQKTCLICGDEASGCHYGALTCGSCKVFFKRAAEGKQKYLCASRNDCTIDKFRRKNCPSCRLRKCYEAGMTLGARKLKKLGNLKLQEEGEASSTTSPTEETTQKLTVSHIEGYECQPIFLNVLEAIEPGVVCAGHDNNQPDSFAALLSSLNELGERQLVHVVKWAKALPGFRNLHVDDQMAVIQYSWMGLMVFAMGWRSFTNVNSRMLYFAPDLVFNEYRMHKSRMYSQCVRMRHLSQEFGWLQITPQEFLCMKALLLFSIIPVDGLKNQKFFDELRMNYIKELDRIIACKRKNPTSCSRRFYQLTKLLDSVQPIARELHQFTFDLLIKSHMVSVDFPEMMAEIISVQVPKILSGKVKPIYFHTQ
Chain of UniProt P00330 (whole entry, looked up): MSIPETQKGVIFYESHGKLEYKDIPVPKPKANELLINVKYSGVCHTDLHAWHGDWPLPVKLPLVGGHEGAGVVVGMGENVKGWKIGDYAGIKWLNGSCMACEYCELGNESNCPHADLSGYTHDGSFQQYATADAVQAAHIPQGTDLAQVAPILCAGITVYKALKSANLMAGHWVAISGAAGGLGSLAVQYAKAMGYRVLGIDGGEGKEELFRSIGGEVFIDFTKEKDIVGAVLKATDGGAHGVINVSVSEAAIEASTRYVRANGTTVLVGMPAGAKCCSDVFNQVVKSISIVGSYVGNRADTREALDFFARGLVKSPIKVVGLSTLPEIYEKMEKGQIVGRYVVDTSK
Chain of UniProt P27472 (whole entry, looked up): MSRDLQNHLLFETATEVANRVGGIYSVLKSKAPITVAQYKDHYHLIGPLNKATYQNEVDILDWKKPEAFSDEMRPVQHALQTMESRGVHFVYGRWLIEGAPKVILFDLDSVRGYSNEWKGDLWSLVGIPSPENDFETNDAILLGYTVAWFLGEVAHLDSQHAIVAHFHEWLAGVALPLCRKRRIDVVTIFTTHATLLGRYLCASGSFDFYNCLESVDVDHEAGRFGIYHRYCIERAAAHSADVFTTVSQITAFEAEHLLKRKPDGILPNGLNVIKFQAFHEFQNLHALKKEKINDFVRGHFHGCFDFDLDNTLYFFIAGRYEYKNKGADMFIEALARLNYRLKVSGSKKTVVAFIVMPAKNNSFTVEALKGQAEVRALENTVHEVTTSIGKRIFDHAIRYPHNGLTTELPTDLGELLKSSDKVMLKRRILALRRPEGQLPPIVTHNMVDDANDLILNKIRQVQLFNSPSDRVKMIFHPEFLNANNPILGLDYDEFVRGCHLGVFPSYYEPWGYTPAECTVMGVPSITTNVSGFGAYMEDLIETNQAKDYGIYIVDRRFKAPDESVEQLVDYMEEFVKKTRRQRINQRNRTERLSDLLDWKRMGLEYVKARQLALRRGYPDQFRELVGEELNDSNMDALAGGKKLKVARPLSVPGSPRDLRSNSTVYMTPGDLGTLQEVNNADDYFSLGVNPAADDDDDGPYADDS
Chain of UniProt Q00195 (whole entry, unmodified, looked up): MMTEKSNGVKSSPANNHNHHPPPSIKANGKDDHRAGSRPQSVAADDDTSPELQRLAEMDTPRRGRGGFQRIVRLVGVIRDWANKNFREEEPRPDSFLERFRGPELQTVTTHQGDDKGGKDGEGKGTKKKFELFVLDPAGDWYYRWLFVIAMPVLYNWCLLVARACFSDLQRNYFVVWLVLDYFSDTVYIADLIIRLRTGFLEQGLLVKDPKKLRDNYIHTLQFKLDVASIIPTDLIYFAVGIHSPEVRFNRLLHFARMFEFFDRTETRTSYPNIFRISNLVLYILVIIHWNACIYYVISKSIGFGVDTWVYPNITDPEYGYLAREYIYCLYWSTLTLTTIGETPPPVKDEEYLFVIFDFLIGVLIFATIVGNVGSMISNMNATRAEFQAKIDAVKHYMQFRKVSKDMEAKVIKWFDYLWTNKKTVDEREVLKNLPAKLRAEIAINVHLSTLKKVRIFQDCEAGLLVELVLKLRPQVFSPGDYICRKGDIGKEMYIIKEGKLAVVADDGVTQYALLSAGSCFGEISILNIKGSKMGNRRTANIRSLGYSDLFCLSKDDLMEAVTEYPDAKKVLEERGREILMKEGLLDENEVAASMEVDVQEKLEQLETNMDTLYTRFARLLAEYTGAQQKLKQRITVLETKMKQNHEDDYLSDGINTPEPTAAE
Chain of UniProt P06536 (whole entry, looked up): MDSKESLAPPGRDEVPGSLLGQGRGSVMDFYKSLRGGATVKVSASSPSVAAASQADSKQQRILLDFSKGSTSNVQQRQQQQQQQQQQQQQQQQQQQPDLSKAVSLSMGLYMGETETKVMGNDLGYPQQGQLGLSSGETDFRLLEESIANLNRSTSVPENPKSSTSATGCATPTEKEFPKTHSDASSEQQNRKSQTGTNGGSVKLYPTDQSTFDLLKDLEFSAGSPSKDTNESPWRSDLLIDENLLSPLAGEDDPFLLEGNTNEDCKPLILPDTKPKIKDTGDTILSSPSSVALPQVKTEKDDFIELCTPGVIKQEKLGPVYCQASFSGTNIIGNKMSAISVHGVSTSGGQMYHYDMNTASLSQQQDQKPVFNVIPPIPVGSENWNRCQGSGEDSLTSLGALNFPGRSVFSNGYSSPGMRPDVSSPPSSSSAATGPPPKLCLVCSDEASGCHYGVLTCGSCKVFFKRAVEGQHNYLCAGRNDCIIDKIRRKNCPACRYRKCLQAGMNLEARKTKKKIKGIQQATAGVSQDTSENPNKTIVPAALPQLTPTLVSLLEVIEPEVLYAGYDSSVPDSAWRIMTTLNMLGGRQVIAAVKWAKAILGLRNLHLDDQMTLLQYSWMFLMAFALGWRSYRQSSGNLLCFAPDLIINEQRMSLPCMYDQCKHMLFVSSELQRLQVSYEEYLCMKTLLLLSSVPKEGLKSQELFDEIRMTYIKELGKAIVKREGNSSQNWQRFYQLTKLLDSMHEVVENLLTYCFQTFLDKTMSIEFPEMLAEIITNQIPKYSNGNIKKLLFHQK
Chain of UniProt Q01581 (whole entry, looked up): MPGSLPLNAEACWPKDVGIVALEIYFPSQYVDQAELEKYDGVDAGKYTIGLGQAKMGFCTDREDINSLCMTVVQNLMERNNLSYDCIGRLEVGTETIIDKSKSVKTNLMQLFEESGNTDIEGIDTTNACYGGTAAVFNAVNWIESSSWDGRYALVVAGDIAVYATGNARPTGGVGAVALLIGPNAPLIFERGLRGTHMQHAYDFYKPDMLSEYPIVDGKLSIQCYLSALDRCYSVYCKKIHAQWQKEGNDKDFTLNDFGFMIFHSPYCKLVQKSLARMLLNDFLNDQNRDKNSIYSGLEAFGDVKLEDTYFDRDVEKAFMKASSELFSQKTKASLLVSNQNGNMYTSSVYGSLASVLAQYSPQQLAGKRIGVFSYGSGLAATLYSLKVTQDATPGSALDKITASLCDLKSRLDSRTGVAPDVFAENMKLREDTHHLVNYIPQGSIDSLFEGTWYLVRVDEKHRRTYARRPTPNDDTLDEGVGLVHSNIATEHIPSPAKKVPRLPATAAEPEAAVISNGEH

| Compound | target or system | test | system | conditions | scale | quantity | result |
| --- | --- | --- | --- | --- | --- | --- | --- |
| Cc1ccc(C(=O)c2ccc(CC(=O)O)n2C)cc1 | CASP4 |  |  | 33 µM, with: LEHD substrate | baseline: solvent control | remaining activity | 8.64% |
| CCOC(=O)OC(=O)OCC | ADH1 (Saccharomyces cerevisiae, UniProt P00330) | enzyme activity, inactivator |  | 90 µM, pH 8.0, 30 °C, turnover number |  | remaining activity | 12 s⁻¹ |
| [Na+].[Na+].[Na+].[O]=[V]([O-])([O-])[O-] | bovine intestinal alkaline phosphatase | rapid dilution |  | 10-fold IC50, 30 min preincubation |  | remaining activity | 73% |
| O=S(=O)(O)c1cc(N=C=S)ccc1C=Cc1ccc(N=C=S)cc1S(=O)(=O)O | SLC4A1 (Homo sapiens, UniProt P02730) | chloride self-exchange flux | human erythrocytes | concentration not given, pH 7.2, 38 °C, after maximal covalent binding | baseline: untreated | remaining activity | 0.2% |
| Nc1nc2c(ncn2[C@@H]2O[C@@H]3COP(=O)(O)O[C@H]3[C@H]2O)c(=O)[nH]1 | Cyclic nucleotide-gated channel alpha-2 (Cnga2, Rattus norvegicus, UniProt Q00195, E583M) | agonist, inside-out patch clamp |  | concentration not given | baseline: saturating cAMP | relative maximal current | ~40% |
| O=c1c2ccccc2[se]n1-c1ccccc1 | CASP4 |  |  | 33 µM, with: LEHD substrate | baseline: solvent control | remaining activity | 5.95% |
| COc1cc2c(cc1OC)C(Cc1ccc(O)c([N+](=O)[O-])c1)N(CC(=O)NCc1ccccc1)CC2 (stereo not drawn) | HCRTR1 | calcium signal, antagonist, fluorescence |  |  |  | Kb | > 10 µM |
| Cn1c(=O)c2[nH]c(Cc3ccccc3)nc2n(C)c1=O | AR | reporter gene, antagonist, PSA-luciferase | HeLa-A6 | 10 µM, 24 h, with: 5 nM dihydrotestosterone | baseline: maximal activity | remaining activity | 102% |
| CN1CCCC1CCn1cnc(-c2ccccc2)c1-c1ccncc1 (stereo not drawn) | Glycogen [starch] synthase isoform 2 (GSY2, Saccharomyces cerevisiae, UniProt P27472) | inhibitor, 14C-glucose incorporation |  | 300 µM | baseline: control | remaining activity | > 95% |
| COc1cc2c(cc1OC)C(Cc1ccc(O)c(N)c1)N(CC(=O)NCc1ccccc1)CC2 (stereo not drawn) | HCRTR1 | calcium signal, antagonist, fluorescence |  |  |  | Kb | > 10 µM |
| CCCC[C@H](NC(C)=O)C(=O)N[C@H]1CCC(=O)NC[C@@H](C(=O)N[C@@H](Cc2c[nH]c3ccccc23)C(N)=O)NC(=O)[C@H](CCCNC(=N)N)NC(=O)[C@@H](Cc2ccccc2)NC(=O)[C@H](Cc2c[nH]cn2)NC1=O |  |  | beagle dog, female, plasma | subcutaneous, 1.5 mg/kg daily, day 28 |  | Cmax | 96 ng/mL |
| CCCCCCCCCCSc1nc2c([nH]1)c(=O)n(C)c(=O)n2C | AR | reporter gene, antagonist, PSA-luciferase | HeLa-A6 | 10 µM, 24 h, with: 5 nM dihydrotestosterone | baseline: maximal activity | remaining activity | 107% |
| COc1ccc(-c2cc(=S)ss2)cc1 | CASP4 |  |  | 33 µM, with: LEHD substrate | baseline: solvent control | remaining activity | 24.5% |
| CCCSc1nc2c([nH]1)c(=S)n(C)c(=S)n2C | Glucocorticoid receptor (Nr3c1, Rattus norvegicus, UniProt P06536) | reporter gene, antagonist, MMTV-luciferase | T47D/A1-2 | 10 µM, 24 h, with: 5 nM dexamethasone | baseline: maximal activity | remaining activity | 79% |
| CC(=C\C(=O)O)/C=C(\C)C[C@H](C)CCCC[C@H]1OC(=O)[C@@H]1CO | HMGCS1 (Homo sapiens, UniProt Q01581) | covalent inhibitor, DTNB |  | 20 µM, pH 8.0, room temperature, with: acetyl-CoA 400 µM, acetoacetyl-CoA 7 µM |  | remaining activity | < 10% |

Repeated from above:
| Compound | target or system | test | system | conditions | scale | quantity | result |
| --- | --- | --- | --- | --- | --- | --- | --- |
| O=S(=O)(O)c1cc(N=C=S)ccc1C=Cc1ccc(N=C=S)cc1S(=O)(=O)O | SLC4A1 (Homo sapiens, UniProt P02730) | chloride self-exchange flux | human erythrocytes | concentration not given, pH 7.2, 38 °C, after maximal covalent binding | baseline: untreated | remaining activity | 0.2% |
| CN1CCCC1CCn1cnc(-c2ccccc2)c1-c1ccncc1 (stereo not drawn) | Glycogen [starch] synthase isoform 2 (GSY2, Saccharomyces cerevisiae, UniProt P27472) | inhibitor, 14C-glucose incorporation |  | 300 µM | baseline: control | remaining activity | > 95% |
